{"data": "Results collected from several papers", "technique": "steady-state kinetics", "B1": "ADA (Homo sapiens, UniProt P00813); chain MAQTPAFDKPKVELHVHLDGSIKPETILYYGRRRGIALPANTAEGLLNVIGMDKPLTLPDFLAKFDYYMPAIAGCREAIKRIAYEFVEMKAKEGVVYVEVRYSPHLLANSKVEPIPWNQAEGDLTPDEVVALVGQGLQEGERDFGVKARSILCCMRHQPNWSPKVVELCKKYQQQTVVAIDLAGDETIPGSSLLPGHVQAYQEAVKSGIHRTVHAGEVGSAEVVKEAVDILKTERLGHGYHTLEDQALYNRLRQENMHFEICPWSSYLTGAWKPDTEHAVIRLKNDQANYSLNTDDPLIFKSTLDTDYQMTKRDMGFTEEEFKRLNINAAKSSFLPEDEKRELLDLLYKAYGMPPSASAGQNL", "B2": "enzyme (Oryctolagus cuniculus, UniProt A0A5F9DQ59); chain MLEAPPPLWAAAALGLTLLGLMVFLCRRHWAMLRIGYNEFLLQPLRNLLMGDSKEQRILHHVRQHAQRGDPQSVLDAIDTYCSQKEWAMNVGDKKGAIMDSVIQEYRPSLVLELGAYCGYSAVRIARLLPPGGRLLTMEINPTYAAITQQMLDIAGLQDKVTVLLGASQDLIPQLKHKYDVDTLDMVFLDHWKDRYLPDTLLLEECGLLRKGSVLLADNVIVPGAPDFLAHVRGSSSFECTHYSSFLEYMPVVDGLEKAIYVGPGRPN", "B3": "enzyme (Candida albicans, UniProt A0A1D8PHX1); chain MISIIQNGISQLSSVSGLDEANLKILICTLLSFPFGIIFKRLPDHDYTLKNIYNVAVSCFYVFGICDLRFGISTLLISATGSYFITRYVRTKSMPWINFLFLMIHMAYSHFHLQFFKEYDPKSIDITGAQMILVMKLSAFGWNIHDGKQPRSTLNDFNKARAITKHPNVLPYIGYVFFYASLLTGPAFDYADYDKFIHGTLFDDVPQDKRPGKNKRRIPRSGVQAFKKFSLGFFWAFLLLQSDKFVTMEYMFSPEFVQYHGLFYRIIYMWILGFTFRLKYYTIWTIAEGACILCGIGYNGVDPETGEFKWNRVQNIDPWSFETGQNVHACLEAWNQNTNIWLKNYVYLRVAKPGKKPGFKSTIFTFTTSAFWHGTRPGYYLTFVVGALMQTVGKYYRRNFRPIFLEADGKTPKPTKIVYDFVCWVNTQLAFGFFVQPFVILGFTKSLECWATVYYWLLWVIAISFFAFSGPFAKSVSKFFKSLQPSYREQQRKSREDKYKLNNEEASIVEQAVGAKLGQDYDIPALGLPPFDVFTDFDQTEVDHDIQHLRKAWTSFRGRRGSITENDFDGLKDAYNNFTNEINDIFNTKKEEFKKEKLNKQN", "B4": "enzyme (Tanacetum cinerariifolium, UniProt H6U1I8); chain SQQAAALFIFGDSVFDPGNNNHINTHVNFKANFWPYGQSYFSSPTGRFSDGRIIPDFIAEYASLPIIPAYLEPNNDFTHGANFASAGAGALIASHAGLAVGLQTQLRYFGDLVDHYRQNLGDIKSRQLLSDAVYLFSCGGNDYQSPYYPYTQEQYVDIVIGNMTNVIKGIYEKGGRKFGVVNVPLIGCWPGMRAKQPGNTCNTEVDELTRLHNQAFAKRLEQLEKQLEGFVYAKFDLSTAILNRMKNPSKYGFKEGESACCGSGPFGGNYDCGRIKEFGLCDNATEYFFFDPFHPNELASRQFAEMFWDGDSMVTQPYNLKALFEGKPSTKYLPNDEL", "B5": "UGT3A2 S435Y (Homo sapiens, UniProt Q3SY77); chain AKILTISTVGGSHYLLMDRVSQILQDHGHNVTMLNHKRGPFMPDFKKEEKSYQVISWLAPEDHQREFKKSFDFFLEETLGGRGKFENLLNVLEYLALQCSHFLNRKDIMDSLKNENFDMVIVETFDYCPFLIAEKLGKPFVAILSTSFGSLEFGLPIPLSYVPVFRSLLTDHMDFWGRVKNFLMFFSFCRRQQHMQSTFDNTIKEHFTEGSRPVLSHLLLKAELWFINSDFAFDFARPLLPNTVYVGGLMEKPIKPVPQDLENFIAKFGDSGFVLVTLGSMVNTCQNPEIFKEMNNAFAHLPQGVIWKCQCSHWPKDVHLAANVKIVDWLPQSDLLAHPSIRLFVTHGGQNSIMEAIQHGVPMVGIPLFGDQPENMVRVEAKKFGVSIQLKKLKAETLALKMKQIMEDKRYKYAAVAASVILRSHPLSPTQRLVGWIDHVLQTGGATHLKPYVFQQPWHEQYLLDVFVFLLGLTLGTLWLCGKLLGMAVWWLRGARKVKET", "B6": "protein (Danio rerio, UniProt A0EXC5); chain MTESELYSVHKGVFVPTHLHPAESLKYYEDFIFRPDDILIVTYPKSGTIWMQEIVPLVVSEGDLTLVLTVPNWDRVPWLEEHRAILLSLEQRASPRIFATHFHHQMMNPSYFKIEPRVLYVMRNPKDVFISSFHYYGMASFLVNPGTQDEFMEKFLNGNIMFGSWFDHVKGWLNAAEQEHILYISYEEMINDLRASVEKIATFLGKSLSSEVVEKIADHCVFKNMKQNKMSNLSLVPEEFMDQKKSEFLRKGIAGDWKNHFSAAQEERFNAVYDDKMKDVKFKFPWD", "B7": "UGT1A9 (Homo sapiens, UniProt O60656); chain GKLLVVPMDGSHWFTMRSVVEKLILRGHEVVVVMPEVSWQLGRSLNCTVKTYSTSYTLEDLDREFKAFAHAQWKAQVRSIYSLLMGSYNDIFDLFFSNCRSLFKDKKLVEYLKESSFDAVFLDPFDNCGLIVAKYFSLPSVVFARGILCHYLEEGAQCPAPLSYVPRILLGFSDAMTFKERVRNHIMHLEEHLLCHRFFKNALEIASEILQTPVTEYDLYSHTSIWLLRTDFVLDYPKPVMPNMIFIGGINCHQGKPLPMEFEAYINASGEHGIVVFSLGSMVSEIPEKKAMAIADALGKIPQTVLWRYTGTRPSNLANNTILVKWLPQNDLLGHPMTRAFITHAGSHGVYESICNGVPMVMMPLFGDQMDNAKRMETKGAGVTLNVLEMTSEDLENALKAVINDKSYKENIMRLSSLHKDRPVEPLDLAVFWVEFVMRHKGAPHLRPAAHDLTWYQYHSLDVIGFLLAVVLTVAFITFKCCAYGYRKCLGKKGRVKKAHKSKTH", "B8": "bshA (Bacillus subtilis, UniProt P42982); chain MRKLKIGITCYPSVGGSGIIATELGKQLAEKGHEIHFITSSIPFRLNTYHPNIHFHEVEVNQYAVFKYPPYDLTLASKIAEVAERENLDIIHAHYALPHAVCAYLAKQMLKRNIGIVTTLHGTDITVLGYDPSLKDLIRFAIESSDRVTAVSSALAAETYDLIKPEKKIETIYNFIDERVYLKKNTAAIKEKHGILPDEKVVIHVSNFRKVKRVQDVIRVFRNIAGKTKAKLLLVGDGPEKSTACELIRKYGLEDQVLMLGNQDRVEDLYSISDLKLLLSEKESFGLVLLEAMACGVPCIGTNIGGIPEVIKNNVSGFLVDVGDVTAATARAMSILEDEQLSNRFTKAAIEMLENEFSSKKIVSQYEQIYADLAEPE", "B9": "enzyme S146C (Schizosaccharomyces pombe, UniProt Q9Y7P0); chain MFTGLVEAIGVVKDVQGTIDNGFAMKIEAPQILDDCHTGDSIAVNGTCLTVTDFDRYHFTVGIAPESLRLTNLGQCKAGDPVNLERAVLSSTRMGGHFVQGHVDTVAEIVEKKQDGEAIDFTFRPRDPFVLKYIVYKGYIALDGTCLTITHVDDSTFSIMMISYTQSKVIMAKKNVGDLVNVEVDQIGKYTEKLVEAHIADWIKKTQA", "B10": "FMO3 V257M (Homo sapiens, UniProt P31513); chain GKKVAIIGAGVSGLASIRSCLEEGLEPTCFEKSNDIGGLWKFSDHAEEGRASIYKSVFSNSSKEMMCFPDFPFPDDFPNFMHNSKIQEYIIAFAKEKNLLKYIQFKTFVSSVNKHPDFATTGQWDVTTERDGKKESAVFDAVMVCSGHHVYPNLPKESFPGLNHFKGKCFHSRDYKEPGVFNGKRVLVVGLGNSGCDIATELSRTAEQVMISSRSGSWVMSRVWDNGYPWDMLLVTRFGTFLKNNLPTAISDWLYMKQMNARFKHENYGLMPLNGVLRKEPVFNDELPASILCGIVSVKPNVKEFTETSAIFEDGTIFEGIDCVIFATGYSFAYPFLDESIIKSRNNEIILFKGVFPPLLEKSTIAVIGFVQSLGAAIPTVDLQSRWAAQVIKGTCTLPSMEDMMNDINEKMEKKRKWFGKSETIQTDYIVYMDELSSFIGAKPNIPWLFLTDPKLAMEVYFGPCSPYQFRLVGPGQWPGARNAILTQWDRSLKPMQTRVVGRLQKPCFFFHWLKLFAIPILLIAVFLVLT", "B11": "protein (UniProt A0A4Y6I1D9); chain MTLDEKPRKFDGLDIEGVAFAASVTALGAAKPLALGGAGDRGLEINGNYIKFTAIGIYVEDGIIPHLSPKLRGKTVEELCEKELLFEEVISAPFEKLVRVVFLVPLTGIQYSEKVLERISVQSLFTDIKEEHKQQFLEIFKGESFPPRSSVILSFSKEGLKVAFAKGDDVPSKAVGTIEDATFADAVLATIIWKEGVSPAAKVSLAERLSKCL", "note": "Compare with care: the assays were run in different laboratories.", "sequence of UniProt Q99518 (whole entry, looked up)": "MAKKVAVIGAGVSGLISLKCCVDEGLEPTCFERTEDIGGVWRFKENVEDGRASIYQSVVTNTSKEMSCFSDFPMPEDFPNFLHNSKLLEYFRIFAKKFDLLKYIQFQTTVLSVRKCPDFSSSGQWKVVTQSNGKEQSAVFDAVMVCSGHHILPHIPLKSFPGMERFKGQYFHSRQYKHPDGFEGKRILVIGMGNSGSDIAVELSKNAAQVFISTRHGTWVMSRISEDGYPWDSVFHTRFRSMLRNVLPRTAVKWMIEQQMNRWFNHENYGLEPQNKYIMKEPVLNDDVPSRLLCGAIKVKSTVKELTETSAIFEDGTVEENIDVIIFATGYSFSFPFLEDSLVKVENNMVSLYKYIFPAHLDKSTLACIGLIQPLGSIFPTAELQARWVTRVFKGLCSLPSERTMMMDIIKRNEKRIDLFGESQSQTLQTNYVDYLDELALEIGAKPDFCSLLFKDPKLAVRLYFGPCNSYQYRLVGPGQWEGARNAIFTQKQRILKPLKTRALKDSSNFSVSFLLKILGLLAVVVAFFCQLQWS", "sequence of UniProt O82390 (whole entry, looked up)": "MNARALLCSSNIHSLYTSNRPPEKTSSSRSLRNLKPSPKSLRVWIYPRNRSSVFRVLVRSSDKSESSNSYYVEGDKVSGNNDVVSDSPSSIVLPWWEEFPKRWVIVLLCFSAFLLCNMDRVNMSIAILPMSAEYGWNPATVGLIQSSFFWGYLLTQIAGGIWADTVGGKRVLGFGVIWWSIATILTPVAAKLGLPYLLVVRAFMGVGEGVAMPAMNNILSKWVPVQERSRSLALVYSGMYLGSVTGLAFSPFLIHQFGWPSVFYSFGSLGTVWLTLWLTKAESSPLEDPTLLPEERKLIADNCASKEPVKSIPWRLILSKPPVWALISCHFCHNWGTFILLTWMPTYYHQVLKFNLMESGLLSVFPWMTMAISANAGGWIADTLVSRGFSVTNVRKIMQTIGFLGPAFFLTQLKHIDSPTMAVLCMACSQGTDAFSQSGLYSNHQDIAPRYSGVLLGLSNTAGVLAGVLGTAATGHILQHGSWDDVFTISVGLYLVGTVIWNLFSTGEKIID"}
{"Molecule": "HCT (Coleus scutellarioides, UniProt E8ZAP2)", "substrate": "O=C(O)C1=C[C@@H](O)[C@@H](O)[C@H](O)C1", "setting": "pH 8, pseudo-first-order, together with: p-coumaroyl CoA", "Vmax [µmol/min/mg]": 38.3}
{"Molecule": "B1 (ADA)", "substrate": "Nc1ncnc2c1ncn2[C@@H]1O[C@H](CO)C[C@H]1O", "system": "HEK293, cell homogenate", "setting": "pH 5.8, 37 °C, not purified", "Vmax [µmol/min/mg]": 0.0458}
{"Molecule": "B2 (enzyme)", "substrate": "O=c1oc2c(O)c(O)ccc2cc1-c1nc2ccccc2s1", "setting": "pH 7.4, 37 °C", "Vmax [µmol/min/mg]": 0.00033}
{"Molecule": "FMO2 (Homo sapiens, UniProt Q99518)", "substrate": "CN1CCC[C@H]1c1cccnc1", "system": "HEK293 microsomes", "setting": "37 °C, not purified, together with: NADPH regenerating system", "Vmax [µmol/min/mg]": "6.5e-06"}
{"Molecule": "enzyme (Arabidopsis thaliana, UniProt O82390)", "substrate": "O=P(O)(O)O", "setting": "pH 6.5, 25 °C, apparent, not purified", "Vmax [µmol/min/mg]": 0.00548}
{"Molecule": "B3 (enzyme)", "substrate": "CC/C=C\\C/C=C\\C/C=C\\CCCCCCCC(=O)SCCNC(=O)CCNC(=O)[C@H](O)C(C)(C)COP(=O)(O)OP(=O)(O)OC[C@H]1O[C@@H](n2cnc3c(N)ncnc32)[C@H](O)[C@@H]1OP(=O)(O)O", "setting": "pH 7.4, 37 °C, apparent, not purified", "Vmax [µmol/min/mg]": 0.0582}
{"Molecule": "B4 (enzyme)", "substrate": "C#CCC1=C(C)[C@@H](O)CC1=O", "setting": "pH 7.5, 25 °C", "Vmax [µmol/min/mg]": 0.0894}
{"Molecule": "B5 (UGT3A2 S435Y)", "substrate": "O=c1ccn([C@@H]2O[C@H](CO[P@@](=O)(O)O[P@@](=O)(O)O[C@H]3O[C@H](CO)[C@@H](O)[C@H](O)[C@H]3O)[C@@H](O)[C@H]2O)c(=O)[nH]1", "setting": "pH 7.4, 37 °C, not purified, together with: 1-OH-pyrene 16 µM, MgCl2 10 mM, alamethicin", "Vmax [µmol/min/mg]": 0.000707}
{"Molecule": "B6 (protein)", "substrate": "C[C@H](CCCC(CO)CO)[C@H]1CC[C@H]2[C@@H]3[C@H](O)C[C@@H]4C[C@H](O)CC[C@]4(C)[C@H]3C[C@H](O)[C@]12C", "setting": "pH 7, 28 °C, substrate inhibition, together with: PAPS 14 µM", "Vmax [µmol/min/mg]": 0.0228}
{"Molecule": "B7 (UGT1A9)", "substrate": "COc1cc(-c2cc(=O)c3c(O)cc(O)cc3o2)ccc1O", "setting": "pH 7.4, 37 °C", "Vmax [µmol/min/mg]": 0.00276}
{"Molecule": "B8 (bshA)", "substrate": "O=C(O)C[C@H](O)C(=O)O", "setting": "pH 7.5, 37 °C, apparent, together with: UDP-GlcNAc 10 mM", "Vmax [µmol/min/mg]": 11.2}
{"Molecule": "B9 (enzyme S146C)", "substrate": "Cc1nc2c(=O)[nH]c(=O)nc-2n(C[C@H](O)[C@H](O)[C@H](O)CO)c1C", "setting": "pH 7.2, 37 °C, apparent", "Vmax [µmol/min/mg]": 0.179}
{"Molecule": "B10 (FMO3 V257M)", "substrate": "CN1CCC[C@H]1c1cccnc1", "system": "HEK293 microsomes", "setting": "37 °C, not purified, together with: NADPH regenerating system", "Vmax [µmol/min/mg]": "1.18e-05"}
{"Molecule": "B11 (protein)", "substrate": "O=C(/C=C/c1ccc(O)cc1)c1c(O)cc(O)cc1O", "Vmax [µmol/min/mg]": 214}
{"note": "Some of these lines once more:"}
{"Molecule": "B6 (protein)", "substrate": "C[C@H](CCCC(CO)CO)[C@H]1CC[C@H]2[C@@H]3[C@H](O)C[C@@H]4C[C@H](O)CC[C@]4(C)[C@H]3C[C@H](O)[C@]12C", "setting": "pH 7, 28 °C, substrate inhibition, together with: PAPS 14 µM", "Vmax [µmol/min/mg]": 0.0228}
